Published values of several laboratories.
Compare with care: the assays were run in different laboratories. ± gives the spread as reported.
Melanocortin receptor 4: Melanocortin receptor 4 (Mus musculus, UniProt P56450)

SMILES	tested on	assay	test system	setting	measurement	value
CCc1noc(CC)c1C(=O)O[C@H]1C(C)=C[C@]23C(=O)[C@@H](C=C(CO)[C@@H](O)[C@]12O)[C@H]1[C@@H](C[C@H]3C)C1(C)C	Protein kinase C alpha type (PRKCA, Homo sapiens, UniProt P17252)	enzyme activity, activator			EC50	0.5 nM
CC[C@H](C)[C@H](NC(=O)[C@H](CO)NC(=O)[C@H](Cc1ccc(O)cc1)NC(=O)[C@H](CC(=O)O)NC(=O)[C@H](CO)NC(=O)[C@@H](NC(=O)[C@H](Cc1ccccc1)NC(=O)[C@@H](NC(=O)CNC(=O)[C@H](CCC(=O)O)NC(=O)C(C)(C)NC(=O)[C@@H](N)Cc1ccc(O)cc1)[C@@H](C)O)[C@@H](C)CC)C(=O)N[C@@H](C)C(=O)N[C@@H](CCSC)C(=O)N[C@@H](CC(=O)O)C(=O)N[C@@H](CCCCN)C(=O)N[C@H](C(=O)N[C@@H](CCCNC(=N)N)C(=O)N[C@@H](CCC(N)=O)C(=O)N[C@@H](CCC(N)=O)C(=O)N[C@@H](CC(=O)O)C(=O)N[C@@H](Cc1ccccc1)C(=O)N[C@H](C(=O)N[C@@H](CC(N)=O)C(=O)N[C@@H](Cc1c[nH]c2ccccc12)C(=O)N[C@@H](CC(C)C)C(=O)N[C@@H](CC(C)C)C(=O)N[C@@H](C)C(=O)N[C@@H](CCC(N)=O)C(=O)N[C@@H](CCCCN)C(=O)NCC(=O)N[C@@H](CCCCN)C(=O)N[C@@H](CCCCN)C(=O)N[C@@H](CC(N)=O)C(=O)N[C@@H](CC(=O)O)C(=O)N[C@@H](Cc1c[nH]c2ccccc12)C(=O)N[C@@H](CCCCN)C(=O)N[C@@H](Cc1c[nH]cn1)C(=O)N[C@@H](CC(N)=O)C(=O)N[C@H](C(=O)N[C@H](C(=O)N[C@@H](CCC(N)=O)C(=O)O)[C@@H](C)O)[C@@H](C)CC)C(C)C)[C@@H](C)CC	Gastric inhibitory polypeptide receptor (GIPR, Homo sapiens, UniProt P48546)	reporter gene, agonist, luciferase			EC50	0.003 nM
CC(=O)N[C@@H](CCCNC(=N)N)C(=O)N[C@@H](CCCNC(=N)N)C(=O)N[C@@H](C(=O)N1Cc2ccccc2C[C@H]1C(N)=O)[C@@H](c1ccccc1)c1c[nH]c2ccccc12	Melanocortin receptor 4	cAMP, agonist, AlphaScreen			EC50	> 100000 nM
CCN(Cc1ccccc1)C(=O)CCc1nc(CN2CCN(C(=O)Cc3ccc(OC)c(OC)c3)CC2)no1	Potassium voltage-gated channel subfamily KQT member 4 (KCNQ4, Homo sapiens, UniProt P56696)	ion current, opener, whole-cell patch clamp	CHO stably expressing channel		EC50	190 ± 20 nM
CC(C)C[C@@H]1NC(=O)[C@H](Cc2ccc(O)cc2)NC(=O)[C@H](CO)NC(=O)[C@H](C)NC(=O)[C@@H](NC(=O)[C@@H]2CCCN2C(=O)[C@H](CC(N)=O)NC(=O)[C@H](Cc2ccc(O)cc2)NC(=O)[C@H](CCCCN)NC(=O)[C@H](C)NC(=O)[C@H](C)NC(=O)[C@@H](N)CC(N)=O)CSC1=O	Accessory gene regulator protein C (Staphylococcus epidermidis, UniProt Q8VSX2)				EC50	71.8 nM
CNC(C)CCc1ccccc1Cl (racemic)	D(3) dopamine receptor (DRD3, Homo sapiens, UniProt P35462)	phosphorylation in cells, agonist, western blot			EC50	39.2 nM
CC[C@H](C)[C@H](NC(=O)[C@H](Cc1ccccc1)NC(=O)[C@H](CCC(=O)O)NC(=O)[C@H](CCCCN)NC(=O)[C@H](C)NC(=O)[C@H](C)NC(=O)[C@H](CCC(N)=O)NC(=O)CNC(=O)[C@H](CCC(=O)O)NC(=O)[C@H](CC(C)C)NC(=O)[C@H](Cc1ccc(O)cc1)NC(=O)[C@H](CO)NC(=O)[C@H](CO)NC(=O)[C@@H](NC(=O)[C@H](CC(=O)O)NC(=O)[C@H](CO)NC(=O)[C@@H](NC(=O)[C@H](Cc1ccccc1)NC(=O)[C@@H](NC(=O)CNC(=O)[C@H](CCC(=O)O)NC(=O)C(C)(C)NC(=O)N(N)Cc1c[nH]cn1)[C@@H](C)O)[C@@H](C)O)C(C)C)C(=O)N[C@@H](C)C(=O)N[C@@H](Cc1c[nH]c2ccccc12)C(=O)N[C@@H](CC(C)C)C(=O)N[C@H](C(=O)N[C@@H](CCCNC(=N)N)C(=O)NCC(=O)N[C@@H](CCCNC(=N)N)C(=O)NCC(=O)O)C(C)C	Glucagon-like peptide 1 receptor (GLP1R, Homo sapiens, UniProt P43220)	cAMP reporter gene, agonist, CRE-luciferase	BHK cells expressing receptor		EC50	0.306 ± 0.044 nM
C[C@@H]1NC(=O)[C@H](CC(N)=O)NC(=O)[C@H](Cc2c[nH]c3ccccc23)NC(=O)[C@H](CCCNC(=N)N)NC(=O)[C@@H](Cc2ccccc2)NC(=O)[C@H](Cc2c[nH]cn2)NC(=O)[C@@H](NC(=O)[C@@H](N)Cc2ccc(O)cc2)CCCn2nncc2-c2cccc(c2)-c2cnnn2CCC[C@@H](C(=O)N[C@@H](Cc2ccc(O)cc2)C(N)=O)NC(=O)[C@H](Cc2ccccc2)NC1=O	Melanocortin receptor 4	agonist			EC50	539 ± 154 nM
CN[C@](C)(C[18F])C(=O)O	A549 tumour model		host not given, muscle	1 h, tumour-bearing	tracer uptake	1.5 %ID/g
C[C@@H]1NC(=O)[C@H](CC(N)=O)N2C[C@H](Cc3c[nH]c4ccccc34)NC(=O)[C@@H](CSCC2=O)NC(=O)[C@H](CCCNC(=N)N)NC(=O)[C@@H](Cc2ccccc2)NC(=O)[C@H](Cc2c[nH]cn2)NC(=O)[C@@H](NC(=O)[C@@H](N)Cc2ccc(O)cc2)CSSC[C@@H](C(=O)N[C@@H](Cc2ccc(O)cc2)C(N)=O)NC(=O)[C@H](Cc2ccccc2)NC1=O	Melanocortin receptor 4	reporter gene, agonist			EC50	440 nM
Cc1cc(O)cc(C)c1CC(N)C(=O)NC1CCNc2c(CN3CCCCC3)cc(Cc3ccccc3)cc21 (centres unmarked)	Delta-type opioid receptor (Oprd1, Rattus norvegicus, UniProt P33533)	GTPγS binding, agonist, radiometric		cell membranes	EC50	27 nM

Repeated from above:
SMILES	tested on	assay	test system	setting	measurement	value
CC[C@H](C)[C@H](NC(=O)[C@H](CO)NC(=O)[C@H](Cc1ccc(O)cc1)NC(=O)[C@H](CC(=O)O)NC(=O)[C@H](CO)NC(=O)[C@@H](NC(=O)[C@H](Cc1ccccc1)NC(=O)[C@@H](NC(=O)CNC(=O)[C@H](CCC(=O)O)NC(=O)C(C)(C)NC(=O)[C@@H](N)Cc1ccc(O)cc1)[C@@H](C)O)[C@@H](C)CC)C(=O)N[C@@H](C)C(=O)N[C@@H](CCSC)C(=O)N[C@@H](CC(=O)O)C(=O)N[C@@H](CCCCN)C(=O)N[C@H](C(=O)N[C@@H](CCCNC(=N)N)C(=O)N[C@@H](CCC(N)=O)C(=O)N[C@@H](CCC(N)=O)C(=O)N[C@@H](CC(=O)O)C(=O)N[C@@H](Cc1ccccc1)C(=O)N[C@H](C(=O)N[C@@H](CC(N)=O)C(=O)N[C@@H](Cc1c[nH]c2ccccc12)C(=O)N[C@@H](CC(C)C)C(=O)N[C@@H](CC(C)C)C(=O)N[C@@H](C)C(=O)N[C@@H](CCC(N)=O)C(=O)N[C@@H](CCCCN)C(=O)NCC(=O)N[C@@H](CCCCN)C(=O)N[C@@H](CCCCN)C(=O)N[C@@H](CC(N)=O)C(=O)N[C@@H](CC(=O)O)C(=O)N[C@@H](Cc1c[nH]c2ccccc12)C(=O)N[C@@H](CCCCN)C(=O)N[C@@H](Cc1c[nH]cn1)C(=O)N[C@@H](CC(N)=O)C(=O)N[C@H](C(=O)N[C@H](C(=O)N[C@@H](CCC(N)=O)C(=O)O)[C@@H](C)O)[C@@H](C)CC)C(C)C)[C@@H](C)CC	Gastric inhibitory polypeptide receptor (GIPR, Homo sapiens, UniProt P48546)	reporter gene, agonist, luciferase			EC50	0.003 nM
